Assay results gathered from unrelated publications.
Every numbered part comes from another study and shows a few of its results, in no order.

Block 1
Target: Interferon regulatory factor 3, full length, phosphomimetic (IRF3, Homo sapiens, UniProt Q14653, residues 1-427, S386D/S396D/S398D/S402D/T404D/S405D)
Technique: protein-binding microarray
Form: double-stranded DNA, one strand shown
Medium: in vitro
Concentration: 2540 nM top
Setting: 60-bp whole probe
Together with: salmon DNA 0.4 mg/ml
Baseline: random background probes
Reading: higher = stronger binding
All sequences stand within: GCCTAGCAC … GTCTTGATTCGCTTGACGCTGCTG
Construct (chain): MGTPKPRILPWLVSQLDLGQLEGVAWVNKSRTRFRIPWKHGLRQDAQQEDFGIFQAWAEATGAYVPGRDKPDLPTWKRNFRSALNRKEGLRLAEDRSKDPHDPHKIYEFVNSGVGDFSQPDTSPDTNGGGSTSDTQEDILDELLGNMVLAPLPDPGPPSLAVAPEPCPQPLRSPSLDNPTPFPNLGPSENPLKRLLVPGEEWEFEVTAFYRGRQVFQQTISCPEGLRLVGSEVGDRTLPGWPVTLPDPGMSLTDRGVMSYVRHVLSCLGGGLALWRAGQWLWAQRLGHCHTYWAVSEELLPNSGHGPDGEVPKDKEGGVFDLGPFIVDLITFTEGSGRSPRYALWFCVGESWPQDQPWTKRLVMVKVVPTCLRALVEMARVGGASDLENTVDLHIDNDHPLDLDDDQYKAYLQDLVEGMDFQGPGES
| Oligonucleotide | fitted relative affinity [z-score] |
| --- | --- |
| TAAGGTATCCTTATCCTTTAGTGCTAG | 5.47 |
| TCATAGCTTCCTTTCGCACTGTGCTAG | 1.23 |
| GACGGTTTGCTTATCCTGACGTGCTAG | 1.07 |
| GTAGGTCTCGGACTGGGTTAGTGCTAG | -0.321 |
| TCAAGTTTTACTTTCTAACTGTGCTAG | 3.77 |
| GAAGATTCCAGTTTCGAGACGTGCTAG | 3.78 |
| TCCTGTATGGATGTGTCTTAGTGCTAG | -0.181 |
| ACAAGTTTTTATTTTCTGAAGTGCTAG | 2.65 |
| TCCCTTTCAGTTTTCCTATGGTGCTAG | 5.2 |
| TTAGATATCAGTCTCGAGTAGTGCTAG | 0.833 |
| TTTGGTATCGGGTATCGGTTAGTGCTA | 2.28 |
| TTAGGTTTGGACACTGGGTTAGTGCTA | -0.533 |
| GACGGTTCCGTTTTCCTGACGTGCTAG | 5.59 |
| TTTGGCTTTCCTTTATGTCCGTGCTAG | 3.39 |
| GACGAACTGGGGCATCGAGACGTGCTA | -0.669 |
| GACGTTATCGGTATCGGGACGTGCTAG | 2.43 |
| TTAGGTCTCGTTATCGGTTAGTGCTAG | 1.18 |
| GACGGACTGGGGACTAGGGACGTGCTA | -0.72 |
| GACGGACTGGGCCTGGGGACGTGCTAG | -1.07 |
| TACCCTTTGAAAGTTGTTTTAGTGCTA | 0.128 |
| TCAACAATTTCAGATTCCACTGTGCTA | 1.69 |
| GACGGTGTCGGTATCGGGACGTGCTAG | 3.09 |
| TTAGGTTTCGGTATCGGTAAGTGCTAG | 9.04 |
| GACGATATCGGCTTTCGAGACGTGCTA | 0.235 |
| TCAGCTCTCTGGACTGTGACTGTGCTA | -0.137 |

Block 2
Target: RING finger protein unkempt homolog, zinc fingers 1-6, GST-SBP tag (UNK, Homo sapiens, UniProt Q9C0B0, residues 30-357)
UniProt Q9C0B0, sequence (30-357, looked up): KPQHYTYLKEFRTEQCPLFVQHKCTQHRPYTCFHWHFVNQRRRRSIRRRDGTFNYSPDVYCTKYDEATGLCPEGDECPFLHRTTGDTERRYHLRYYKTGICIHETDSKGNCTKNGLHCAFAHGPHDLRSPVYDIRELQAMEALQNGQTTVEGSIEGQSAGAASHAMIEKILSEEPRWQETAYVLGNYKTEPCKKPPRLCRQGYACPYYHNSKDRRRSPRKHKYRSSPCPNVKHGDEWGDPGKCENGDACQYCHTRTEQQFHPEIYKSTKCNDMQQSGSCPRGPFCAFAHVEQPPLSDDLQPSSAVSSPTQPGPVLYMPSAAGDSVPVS
Technique: RNA Bind-n-Seq
Form: RNA
Medium: in vitro
Concentration: not given
Setting: RNA with constant flanks, ends assumed
Baseline: input RNA pool
Reading: higher = stronger binding
| Oligonucleotide | bound/input enrichment [ratio] |
| --- | --- |
| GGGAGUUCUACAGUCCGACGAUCUCUUUUUUUGCUGGGGAUAAAAACGAAGCACAUAAACUAAAGGAGGACUUCCGGCUACACUUCCGGAACAUUUCAAGAAUCAUGGACUGUGUUGGCUGCUUCAAGUGCCGCCUGUGGGGCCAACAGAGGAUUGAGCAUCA | 0.367 |
| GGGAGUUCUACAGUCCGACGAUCUGCUUGGUGCUGAUUUGUGAACCCAUUCCUCACCCAUCAAAUAUUGAAAUUCCUUCCGACCGCAAGACUUUCCUCAGUCGACACAGCCUGGAUAUGAAAUUUUCUUAUUGUGAUGAAAGACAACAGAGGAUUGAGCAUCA | 0.211 |
| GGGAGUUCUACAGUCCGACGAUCGUGUUGGUACAGAGUGCUCUGUACCAGUGCUCAUCAUCCCUUCUUCAUACCAACGGUCCCCCGUUACCGGAAUUUAAUAUUUUUAAAAGUUUUACAUUGCUGUAUAUUCAAAGAUUUGUUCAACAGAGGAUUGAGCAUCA | 1.7 |
| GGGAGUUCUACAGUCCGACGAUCUUAGUACCAAGAUGUUCUUUUUUCAUUAUCAGUCUUUCAGAUGUCUAUUUUCUUGCUGAACCGCAGAGGACUUUAUUUCCACCUCCCUAUAAAGUGUGAGCACUGUGUUUCAGCGAGCUGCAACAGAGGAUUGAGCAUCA | 1.65 |
| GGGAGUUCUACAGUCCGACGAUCCCUCCCCGGGCCACCCAGCCCGCCCAACUCCCAGCGGAGAGCAAGGUUUUCUUCUGUUUUCACCGCCAGCCAGAACAAUGUUCUACGCACAUUUUGUUCUCAGUAAAAGAGGGCCUCUGGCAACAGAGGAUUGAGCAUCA | 0.462 |
| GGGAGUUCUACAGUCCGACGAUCCUGUGUUAUAUGUCAUAUUUAGCGUUUUUAUAUAUGACCUUUGAUUUCUGUUGUUUGUAUUUCCGCACAGUGUAUGCACCUUCAUUUAAAUACAUCUGUGUGCAUACAGAUACGCAUAUACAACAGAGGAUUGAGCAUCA | 1.71 |
| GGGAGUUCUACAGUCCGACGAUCGUGGUGGCCAUAGGAACGCACUCAGGCAGGUGGUUUGUUCUGGAUGCAGAAACCAGAGAUCCCGUUUCUAUCCACACAGACGGGAAUGAACAGCUCUCUGUGAUGCGCUACUCAAUAGAUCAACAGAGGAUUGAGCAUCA | 0.175 |
| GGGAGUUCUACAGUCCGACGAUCUACAAUGUAUUUGUGUAAUUUAUAGAAGUAAAAUCUAGAUGUUGAGACCUGUUUGGUCUAACCGAUGUGGAUACAGUUUAUUUUACUUGAAAUUUUGUUGUCUACUUUGUGUGUUUAACGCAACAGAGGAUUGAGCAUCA | 0.658 |
| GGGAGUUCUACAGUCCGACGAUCCCUGCGAUUGUUCAUAUAAACCACCAGCCAUACUUGGAAAGAGGAGAUGGUCCAAUUUGUCCCGUGCUGGCUCCUACCAGAGAGCUUGCGCAGCAGGUGCAGCAGGUGGCUGACGAUUAUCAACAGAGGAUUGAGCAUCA | 0.131 |
| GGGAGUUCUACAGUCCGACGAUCCGAGCUGGAUCCAGAGUUGCAUAUAGACCAAUUUCUGCAUCAGUGUUAUCUCGGCCAGAGACCCGGACUGGAGAGGGCUCUACAGUUUUUAAUGGGGCCCAGAAUGGUGUGUGUCAGCUGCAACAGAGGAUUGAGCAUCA | 0.272 |
| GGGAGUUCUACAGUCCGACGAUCCAGCCAGCAAACUUGAUAGUGCUUUUGGUCCUAGAUGAUUUUUAUCAAAUAAGUGGAUUGAUCCGUUAAGUUCAGGUAAUGUUUAUGUAAUGAAAAACAAAUAGCAUCCUUCUUGUUUCACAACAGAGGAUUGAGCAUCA | 0.577 |

Block 3
Target: RNA binding protein fox-1 homolog 2, RRM domain, GST-SBP tag (RBFOX2, Homo sapiens, UniProt O43251-10, residues 100-194)
Technique: RNA Bind-n-Seq
Form: RNA
Medium: in vitro
Concentration: 365 nM
Setting: natural RNA segment, single round, ends assumed
Baseline: no-protein control
Reading: higher = stronger binding
Residues (chain): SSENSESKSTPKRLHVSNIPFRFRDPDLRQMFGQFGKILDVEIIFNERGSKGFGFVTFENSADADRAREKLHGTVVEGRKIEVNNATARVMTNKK
| Oligonucleotide | RBNS enrichment (R) |
| --- | --- |
| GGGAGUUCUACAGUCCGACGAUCCAAUGAAAGUCAAAUUUACUUUAAAAAGAAAUUAAUAUGGCUUCACCAAGAAGCAAAGUUCAACUUAUUUCAUAAUUGCCUACAUUUAUCAUGGUCCUGAAUGUAGCGUGUGGAAUUCUCGGGUGCCAA | 0.896 |
| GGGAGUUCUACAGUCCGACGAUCUCCAAAUUCACAGCAGUGGAUCCCAUGCCACUUUGCUGUCCUGAGCACCCCAGACUUGACUGUGUAAAUAAGAGUGUUUCAUUCAAAUGUUAAUAAACUUUACACAGUAUUGGAAUUCUCGGGUGCCAA | 0.237 |
| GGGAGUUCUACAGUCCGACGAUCCUAUUUGGUAUGAAGUAGCAAAGCUACCUAGGAAGGUUAAAAAAUUAUGUACAUCAAAGAUAUCCUAGAUGUAGAGACGAUGGUGUCUGGGAUAAAAGGCAGAGUUAGUUUGGAAUUCUCGGGUGCCAA | 1.46 |
| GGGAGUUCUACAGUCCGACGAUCACCCUUGGCUUGGGCCCAUGCCCAGCGCAGGCCUGAAGACCACCCUCCCGAGAGGAACCAGCCCGGUAAGAGGGCACACGCUGAUGCGGCUUCCCGGUCCCUCCGCGUGUUGGAAUUCUCGGGUGCCAA | 0.344 |
| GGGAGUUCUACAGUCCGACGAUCAGAAAUGCCAGUCUUCCACUACCCCCUCCCUGCCAUCUUUUCUUCUGCUACUUUGGGGAGUUGAUGGCCAGGAAAGAAGCCAGCACAGGGUUAAAGUAACUCCUGGCAUUUGGAAUUCUCGGGUGCCAA | 0.837 |
| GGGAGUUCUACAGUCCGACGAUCCAGGGACACUGCUGCCAUGUCCCAACAAGCUGUUCAGUUUAAACUGCUGAAUGACAUUAUUUGAGCUAUUUAAAGCUUACUUUAGUAUGAACUAAAUGAAGGUUAAAACAUGGAAUUCUCGGGUGCCAA | 0.423 |
| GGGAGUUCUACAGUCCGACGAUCCCUUGAGAGAGAACCUGGGCUAGGGCUAGAGUUAGGGCUACAUACUCCAAGGUGACCUCACAUUUGACUAUCAAAUGAAGUGUUGUGAUUGGGAAGCGUAGAGGCAGGGCUGGAAUUCUCGGGUGCCAA | 0.529 |
| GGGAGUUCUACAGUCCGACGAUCAAACAGAAUCAGAUGUGUAAUAUACUUGGCACAGCGAAAAAAUGGAUUUAAAAGACAAAAAUGGAGGUCCAGGUAGAUGUAAUUCACACAGACUGAAAGUGAGUUCGGGCUGGAAUUCUCGGGUGCCAA | 0.423 |
| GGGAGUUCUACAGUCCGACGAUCCCCCAAACUCAGAUCCAGGUAUGAUAGUUUAUGCCUAUAAUCCCAGCACCAGGGAAGCUAAGGUGGAAGGUUGUUUGAGUUUGGAACUGGGCUAGAGAGUGAGUUAUUGCUGGAAUUCUCGGGUGCCAA | 0.738 |
| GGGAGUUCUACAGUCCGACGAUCGUUUUGGAAAACUAUAAGAAAUGCUUUGUUAAUGUGUGUAUUCCUAUGUAAAACACAUGGCUUUUCCUGUGUAUAUUUUUAAAAAUUAAAGAAAUGCACAUUUAAAAAGUUGGAAUUCUCGGGUGCCAA | 0.76 |
| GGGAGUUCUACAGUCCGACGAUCCAGCAGCUAAGAAGACAGACAGUAGAGAAUGUGAGAGGAUCUCAUGGUUCUGAUGAUGAUUAUCCAACAAACAUCUGGCCCUCUCUACAUCUCUUCCCUCCAUCUCCUUGUGGAAUUCUCGGGUGCCAA | 0.331 |
| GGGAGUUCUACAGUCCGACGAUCCAAUGUAGGAUUGCCCACAGUUUUUCUUUUUAAAGGUGGUUUUCGCCCUUCCUCUCCCACAUUAUUUCUUAAUCUGAACAUGAAGGCUCCAUUAGCAACACUAAAACUUGUGGAAUUCUCGGGUGCCAA | 0.566 |

Block 4
Target: Histone acetyltransferase KAT6A, both winged helices, GST fusion (KAT6A, Homo sapiens, UniProt Q92794, residues 1-181)
Technique: protein binding microarray
Form: double-stranded DNA, one strand shown
Medium: in vitro
Concentration: not given
Setting: 8-mer, flanks averaged, mean of 2 arrays, mostly near background
Baseline: not given
Reading: higher = stronger binding
Target sequence (chain): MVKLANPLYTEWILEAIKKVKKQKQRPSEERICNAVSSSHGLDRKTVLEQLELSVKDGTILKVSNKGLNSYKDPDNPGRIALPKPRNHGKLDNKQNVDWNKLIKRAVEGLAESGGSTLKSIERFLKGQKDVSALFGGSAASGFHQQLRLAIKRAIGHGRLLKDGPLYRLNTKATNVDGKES
| Oligonucleotide | E-score |
| --- | --- |
| CCGTAGTC | 0.273 |
| GGCTGCCC | 0.0647 |
| CCTTTGCG | 0.128 |
| ATTGCTAG | -0.111 |
| AGAGTTAG | -0.171 |
| TAGCGTAA | 0.126 |
| CAGTAATG | -0.101 |
| TACGAACA | -0.00543 |
| GGATATTA | 0.0493 |
| AAGCCATT | 0.0888 |
| ACCTATCC | -0.103 |
| CATACACG | -0.0185 |
| TAGCTGCA | -0.117 |
| AGTATTGG | -0.192 |
| AATCCAAA | -0.0983 |
| GGCCAGAA | -0.173 |
| CGCCGTAG | 0.349 |
| CATGGACG | 0.113 |
| GCCACTGA | -0.199 |
| AAAATTAG | -0.03 |
| ACTTGACT | -0.273 |
| ATCGCCGG | 0.271 |
| TTAAGTAA | -0.201 |
| CTAACGCC | 0.127 |
| ACCTTAAA | -0.106 |

Some of these lines once more (block 1):
| Oligonucleotide | fitted relative affinity [z-score] |
| --- | --- |
| TTTGGTATCGGGTATCGGTTAGTGCTA | 2.28 |
| TTAGGTTTGGACACTGGGTTAGTGCTA | -0.533 |
| GACGGTTCCGTTTTCCTGACGTGCTAG | 5.59 |
| TTTGGCTTTCCTTTATGTCCGTGCTAG | 3.39 |
| GACGAACTGGGGCATCGAGACGTGCTA | -0.669 |
| GACGTTATCGGTATCGGGACGTGCTAG | 2.43 |
